Published values collected from several papers.
Each line is one published result; not all experiments were run side by side.
Target: Adenosine receptor A1 (ADORA1, Homo sapiens, UniProt P30542)
UniProt P30542, sequence (whole entry, looked up): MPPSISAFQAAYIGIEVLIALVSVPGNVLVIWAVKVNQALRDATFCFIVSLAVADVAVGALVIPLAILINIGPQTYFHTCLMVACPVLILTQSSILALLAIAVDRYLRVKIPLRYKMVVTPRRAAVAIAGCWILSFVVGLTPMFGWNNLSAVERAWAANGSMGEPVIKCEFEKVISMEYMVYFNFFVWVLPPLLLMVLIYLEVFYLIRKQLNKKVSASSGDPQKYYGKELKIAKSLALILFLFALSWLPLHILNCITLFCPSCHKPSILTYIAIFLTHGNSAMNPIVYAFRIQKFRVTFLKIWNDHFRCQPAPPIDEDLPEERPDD

Structure (SMILES)	effect on	technique	tested at	inhibition
COc1ccc(S(=O)(=O)N2CCc3ccccc3C2)cc1N1CCN(C(=O)c2ccc(F)cc2C(F)(F)F)CC1	ligand displacement	radioligand	1 µM	2.7%
O=C1c2sc(-c3ccc(N4CCC(F)C4)nc3F)nc2CCN1c1cccnc1 (stereo not drawn)	ligand displacement	radioligand	1 µM	2%
Cc1[nH]nc2c1N=C(c1ccccc1Cl)c1cnc(N3CCOCC3)cc1N2	cell-free assay	–	10 µM	18%
OCC1OC(n2cnc3c(NCc4ccc(Br)s4)ncnc32)C(O)C1O (stereo not drawn)	ligand displacement	radioligand	10 µM	49%
COCC(=O)N1CCc2cc(-c3csc(NC(=O)c4cc(OC)cc(OC)c4)n3)ccc21	ligand displacement	radioligand	10 µM	20%
O=C(O)COc1cccc(NC(=O)c2cc(-c3cccc(F)c3)ccc2F)c1	ligand displacement	radioligand	10 µM	3%
CC(=O)c1cnc(N)nc1N1CC[C@H]1c1nn2ccc(Cl)c2c(=O)n1-c1ccccc1	ligand displacement	radioligand	10 µM	11%
Cn1ccc2cc(-n3c(=O)[nH]c4sc5c(c4c3=O)CCCC5)ccc21	cell-free assay	radioligand	10 µM	-1%
CO[C@@H](C)c1c(NC(=O)Nc2cnc(-n3nccn3)c(C(F)(F)F)c2)cnc2sc(C)nc12	ligand displacement	radioligand	10 µM	53.9%

Excerpt of the above:
Structure (SMILES)	effect on	technique	tested at	inhibition
OCC1OC(n2cnc3c(NCc4ccc(Br)s4)ncnc32)C(O)C1O (stereo not drawn)	ligand displacement	radioligand	10 µM	49%
